Measured values collected from several papers.
Lines come from different studies, so protocols differ. In brackets after ≈: the same amount, converted by molar mass.
Organism: Enterococcus faecalis

| Structure (SMILES) | assay | system | conditions | MIC |
| --- | --- | --- | --- | --- |
| CC(C)(O/N=C(\C(=O)N[C@@H]1C(=O)N2C(C(=O)[O-])=C(C[n+]3ccccc3)CS[C@H]12)c1csc(N)n1)C(=O)O | broth microdilution | – | 18 h | 32 µg/mL (≈ 58.5 µM) |
| Cc1ccc2[nH]nc(-c3nnc(Nc4ccc([N+](=O)[O-])cc4)s3)c2c1 | – | ATCC 2942 | – | 9.5 µg/mL (≈ 27 µM) |
| CCCNc1nc(F)c2c(c1O)C(=O)C1=C(O)[C@]3(O)C(=O)C(C(N)=O)=C(O)[C@@H](N(C)C)[C@@H]3C[C@@H]1C2.Cl.Cl | broth microdilution CLSI | ATCC 29212 | – | 0.5 µg/mL |
| Cc1ccc2[nH]nc(-c3nnc(Nc4ccc(Br)cc4)s3)c2c1 | – | ATCC 2942 | – | 199 µg/mL (≈ 515 µM) |
| C=C/C=C(\C)CC[C@H]1C[C@H](O)CC(=O)O1 | broth microdilution | KCTC 3511 | 37 °C, Mueller-Hinton broth | 64 µg/mL (≈ 304 µM) |
| CN(C)[C@@H]1C(O)=C(C(N)=O)C(=O)[C@@]2(O)C(O)=C3C(=O)c4c(O)c(N)nc(Cl)c4C[C@H]3C[C@@H]12 | broth microdilution CLSI | ATCC 29212 | – | 1 µg/mL (≈ 2.15 µM) |
| Cc1ccc2[nH]nc(-c3nnc(Nc4cc(Cl)cc(Br)c4)s3)c2c1 | – | ATCC 2942 | – | 194 µg/mL (≈ 460 µM) |
| CCCNc1nc(N(C)C)c2c(c1O)C(=O)C1=C(O)[C@]3(O)C(=O)C(C(N)=O)=C(O)[C@@H](N(C)C)[C@@H]3C[C@@H]1C2.Cl.Cl | broth microdilution CLSI | ATCC 29212 | – | > 32 µg/mL |
| C[N+](C)(C)CCCN | – | BM4166, VanA vancomycin-resistant | – | > 800 µg/mL |
| Cc1ncc(O)c2c1C[C@H]1C[C@H]3[C@H](N(C)C)C(O)=C(C(N)=O)C(=O)[C@@]3(O)C(O)=C1C2=O.Cl.Cl | broth microdilution CLSI | ATCC 29212 | – | > 32 µg/mL |
| CC[C@H]1OC(=O)[C@H](C)[C@@H](O[C@H]2C[C@@](C)(OC)[C@@H](O)[C@H](C)O2)[C@H](C)[C@@H](O[C@@H]2O[C@H](C)C[C@H](N(C)C)[C@H]2O)[C@](C)(O)C[C@@H](C)CN(C)[C@H](C)[C@@H](O)[C@]1(C)O | – | ATCC 2942 | – | < 98 µg/mL |
| CN[C@H](CC(C)C)C(=O)N[C@H]1C(=O)N[C@@H](CC(N)=O)C(=O)N[C@H]2C(=O)N[C@H]3C(=O)N[C@H](C(=O)N[C@H](C(=O)O)c4cc(O)cc(O)c4-c4cc3ccc4O)[C@H](O)c3ccc(c(Cl)c3)Oc3cc2cc(c3O[C@@H]2O[C@H](CO)[C@@H](O)[C@H](O)[C@H]2O[C@H]2C[C@](C)(N)[C@H](O)[C@H](C)O2)Oc2ccc(cc2Cl)[C@H]1O | broth microdilution | – | 18 h | 32 µg/mL (≈ 22.1 µM) |

Repeated from above:
| Structure (SMILES) | assay | system | conditions | MIC |
| --- | --- | --- | --- | --- |
| CC(C)(O/N=C(\C(=O)N[C@@H]1C(=O)N2C(C(=O)[O-])=C(C[n+]3ccccc3)CS[C@H]12)c1csc(N)n1)C(=O)O | broth microdilution | – | 18 h | 32 µg/mL (≈ 58.5 µM) |
